Published values gathered from unrelated publications.
Protocols differ between the studies behind these lines. Numbers after ± are the reported error.

C=Cc1c(C)c2cc3nc(c4c5[nH]c(cc6nc(cc1[nH]2)C(C)=C6CC)c(C)c5C(=O)C4)[C@@H](CCC(=O)NCC(=O)N1CCC[C@H]1C(=O)N[C@@H](CC(C)C)C(=O)NCC(=O)N[C@@H](Cc1ccccc1)C(=O)N[C@@H](CCCNC(=N)N)C(=O)N[C@H](C(=O)NCC(=O)N[C@@H](CCCCN)C(N)=O)C(C)C)[C@@H]3C
penetration depth (C57BL/6J mouse, DMM osteoarthritis model, knee articular cartilage; intra-articular, 6 h): 50 µm

CSCC[C@H](NC(=O)[C@H](CC(C)C)NC(=O)[C@H](Cc1c[nH]cn1)NC(=O)CNC(=O)[C@@H](NC(=O)[C@H](C)NC(=O)[C@H](Cc1c[nH]c2ccccc12)NC(=O)[C@H](CCC(N)=O)NC(=O)CCCCCNC(=O)CNC(=O)CNC(=O)CNC(=O)CSC(C)=O)C(C)C)C(N)=O [technetium-99m labelled]
tissue uptake (Swiss mouse, spleen; intravenous, 18.5 MBq, 30 min): 0.64 ± 0.05 %ID/g

CC(C)C[C@H](NC(=O)[C@@H]1CCCN1C(=O)[C@H](CCCCN)NC(=O)[C@@H](N)CO)C(=O)N1CCC[C@H]1C(=O)N[C@@H](CCC(=O)O)C(=O)N[C@H](C(=O)N[C@H](C(=O)N[C@@H](CC(=O)O)C(=O)N[C@@H](CCC(=O)O)C(=O)N[C@@H](Cc1ccc(O)cc1)C(=O)N[C@@H](Cc1cn(CCOCCOCCOCCNC(=O)CCc2ccc(O)c(CN(CCN(CC(=O)O)Cc3cc(CCC(=O)NCCCC[C@H](NC(=O)N[C@@H](CCC(=O)O)C(=O)O)C(=O)O)ccc3O)CC(=O)O)c2)nn1)C(=O)O)[C@@H](C)O)C(C)C [gallium-68 labelled]
standardized uptake value (NMRI nu/nu mice, LNCaP tumour, adrenals; 10 MBq, high molar activity): 1.1 g/g

N=C(N)NCCC[C@@H]1NC(=O)[C@H](CCCCNC(=O)CNC(=O)CNC(=O)CNC(=O)CC[C@H](NC(=O)CCOCCOCCOCCOCCNC(=O)CC[C@H](NC(=O)CN2CCN(CC(=O)O)CCN(CC(=O)O)CCN(CC(=O)O)CC2)C(=O)NCCOCCOCCOCCOCCC(=O)N[C@@H](CCC(=O)NCC(=O)NCC(=O)NCC(=O)NCCCC[C@@H]2NC(=O)[C@@H](Cc3ccccc3)NC(=O)[C@H](CC(=O)O)NC(=O)CNC(=O)[C@H](CCCNC(=N)N)NC2=O)C(=O)NCC(=O)NCC(=O)NCC(=O)NCCCC[C@@H]2NC(=O)[C@@H](Cc3ccccc3)NC(=O)[C@H](CC(=O)O)NC(=O)CNC(=O)[C@H](CCCNC(=N)N)NC2=O)C(=O)NCC(=O)NCC(=O)NCC(=O)NCCCC[C@@H]2NC(=O)[C@@H](Cc3ccccc3)NC(=O)[C@H](CC(=O)O)NC(=O)CNC(=O)[C@H](CCCNC(=N)N)NC2=O)NC(=O)[C@@H](Cc2ccccc2)NC(=O)[C@H](CC(=O)O)NC(=O)CNC1=O [indium-111 labelled]
tissue uptake (athymic nude mice, female, U-87 MG glioma xenograft, bone; intravenous, 3 µCi, 72 h): 0.42 ± 0.11 %ID/g

N=C(N)NCCC[C@@H]1NC(=O)[C@H](CCCCNC(=O)CNC(=O)CNC(=O)CNC(=O)CC[C@H](NC(=O)CNC(=O)CNC(=O)CNC(=O)c2ccc(NN=Cc3ccccc3S(=O)(=O)O)nc2)C(=O)NCC(=O)NCC(=O)NCC(=O)NCCCC[C@@H]2NC(=O)[C@@H](Cc3ccccc3)NC(=O)[C@H](CC(=O)O)NC(=O)CNC(=O)[C@H](CCCNC(=N)N)NC2=O)NC(=O)[C@@H](Cc2ccccc2)NC(=O)[C@H](CC(=O)O)NC(=O)CNC1=O [technetium-99m labelled]
tissue uptake (athymic nu/nu mouse, female, MDA-MB-435 xenograft, blood; intravenous, 120 min): 0.38 ± 0.1 %ID/g

CCCC[C@H](NC(=O)CNC(=O)CNC(=O)CNC(=O)c1ccc(NN)nc1)C(=O)N[C@H]1CC(=O)NCCCC[C@@H](C(N)=O)NC(=O)[C@H](Cc2c[nH]c3ccccc23)NC(=O)[C@H](CCCNC(=N)N)NC(=O)[C@@H](Cc2ccccc2)NC(=O)[C@H](Cc2c[nH]cn2)NC1=O [technetium-99m labelled]
uptake ratio (C57 mouse, B16/F1 melanoma; 2 h; relative to: tumour over kidney): 1.92

N=C(N)NCCC[C@@H]1NC(=O)[C@H](CCCCNC(=O)CC[C@H](NC(=O)CCOCCOCCOCCOCCNC(=O)CN2CCN(CC(=O)O)CCN(CC(=O)O)CCN(CC(=O)O)CC2)C(=O)NCCCC[C@@H]2NC(=O)[C@@H](Cc3ccccc3)NC(=O)[C@H](CC(=O)O)NC(=O)CNC(=O)[C@H](CCCNC(=N)N)NC2=O)NC(=O)[C@@H](Cc2ccccc2)NC(=O)[C@H](CC(=O)O)NC(=O)CNC1=O [indium-111 labelled]
tissue uptake (female athymic nude mice, bone; intravenous, 3 µCi, 0.5 h, U-87 MG glioma xenograft): 1.52 ± 0.47 %ID/g

N=C(N)NCCC[C@@H]1NC(=O)[C@H](CCCCn2cc(CNC(=O)CN3CCN(CC(=O)O)CCN(CC(=O)O)CCN(CC(=O)O)CC3)nn2)NC(=O)[C@@H](Cc2ccccc2)NC(=O)[C@H](CC(=O)O)NC(=O)CNC1=O
logD (octanol/ammonium acetate buffer; pH 6.8, 64Cu-labelled): -3.3

N=C(N)NCCC[C@@H]1NC(=O)[C@H](CCCCNC(=O)CCOCCOCCOCCOCCNC(=O)CC[C@H](NC(=O)CCOCCOCCOCCOCCNC(=O)CC[C@H](NC(=O)CN2CCN(CC(=O)O)CCN(CC(=O)O)CCN(CC(=O)O)CC2)C(=O)NCCOCCOCCOCCOCCC(=O)N[C@@H](CCC(=O)NCCOCCOCCOCCOCCC(=O)NCCCC[C@@H]2NC(=O)[C@@H](Cc3ccccc3)NC(=O)[C@H](CC(=O)O)NC(=O)CNC(=O)[C@H](CCCNC(=N)N)NC2=O)C(=O)NCCOCCOCCOCCOCCC(=O)NCCCC[C@@H]2NC(=O)[C@@H](Cc3ccccc3)NC(=O)[C@H](CC(=O)O)NC(=O)CNC(=O)[C@H](CCCNC(=N)N)NC2=O)C(=O)NCCOCCOCCOCCOCCC(=O)NCCCC[C@@H]2NC(=O)[C@@H](Cc3ccccc3)NC(=O)[C@H](CC(=O)O)NC(=O)CNC(=O)[C@H](CCCNC(=N)N)NC2=O)NC(=O)[C@@H](Cc2ccccc2)NC(=O)[C@H](CC(=O)O)NC(=O)CNC1=O [indium-111 labelled]
retention half-life (planar imaging; athymic nude mouse, U-87 MG xenograft, tumour; intravenous): > 30 h

CCCC[C@H](NC(=O)CNC(=O)CNC(=O)c1ccc(NN)nc1)C(=O)N[C@H]1CC(=O)NCCCC[C@@H](C(N)=O)NC(=O)[C@H](Cc2c[nH]c3ccccc23)NC(=O)[C@H](CCCNC(=N)N)NC(=O)[C@@H](Cc2ccccc2)NC(=O)[C@H](Cc2c[nH]cn2)NC1=O [technetium-99m labelled]
tissue uptake ratio (C57 mouse, B16/F1 melanoma-bearing; intravenous, 24 h; relative to: tumour over kidney): 3.55
